# Measured values from different studies.
# Each line is one published result; not all experiments were run side by side. ± marks the error that the study gave.
SMILES,target,test,test system,conditions,scale,quantity,value
Cc1ccc2c(c1)nc(/C=C/c1cccc3cccnc13)n2-c1cccc(OCCCN2CCN(C)CC2)c1,PDE10A Y693A mutant,"enzyme activity, inhibitor",,,reference: mutant over wild type,potency loss,13 fold
CN(C)C1CCN(c2nc3oc4ccccc4c(=O)c3s2)CC1,IκBα (mouse),"IκBα phosphorylation, immunoblot",RAW264.7,"50, 10, 2 µM, 12 h, with: LPS 1 µg/mL",,inhibition,inhibited
Cc1sc2ncn(CC(=O)N3CCCC3)c(=O)c2c1-c1cccc(Br)c1,"NMDA receptor, mouse","single-channel current, outside-out patch",cortical neurons,"concentration not given, holding -80 mV, with: Ca2+ 0.5 mM",,unitary current amplitude 1,-4.23 ± 0.55 pA
CC[C@H](C)[C@H](NC(=O)[C@H](CCC(=O)O)NC(=O)[C@H](CO)NC(=O)[C@@H](NC(=O)[C@@H](N)CO)C(C)C)C(=O)N[C@@H](CCC(N)=O)C(=O)N[C@@H](CC(C)C)C(=O)N[C@@H](CCSC)C(=O)N[C@@H](Cc1c[nH]cn1)C(=O)N[C@@H](CC(N)=O)C(=O)N[C@@H](CC(C)C)C(=O)NCC(=O)N[C@@H](CCCCN)C(=O)N[C@@H](Cc1c[nH]cn1)C(=O)N[C@@H](CC(C)C)C(=O)N[C@@H](CC(N)=O)C(=O)N[C@@H](CO)C(=O)N[C@@H](CCSC)C(=O)N[C@@H](CCC(=O)O)C(=O)N[C@@H](CCCNC(=N)N)C(=O)N[C@H](C(=O)N[C@@H](CCC(=O)O)C(=O)N[C@@H](Cc1c[nH]c2ccccc12)C(=O)N[C@@H](CC(C)C)C(=O)N[C@@H](CCCNC(=N)N)C(=O)N[C@@H](CCCCN)C(=O)N[C@@H](CCCCN)C(=O)N[C@@H](CC(C)C)C(=O)N[C@@H](CCC(N)=O)C(=O)N[C@@H](CC(=O)O)C(=O)N[C@H](C(=O)N[C@@H](Cc1c[nH]cn1)C(=O)N[C@@H](CC(N)=O)C(=O)N[C@@H](Cc1ccccc1)C(=O)O)C(C)C)C(C)C,Gαs-GFP,"co-localization, confocal microscopy",HEK293,"30 min, after ligand washout",,Pearson correlation coefficient,0.8 ± 0.019
COC(=O)c1cc(NC(=O)[C@H](CCCCN)NC(=O)c2cc(NC(=O)[C@H](CCCCN)NC(=O)c3cc(NC(=O)[C@H](CCCCN)NC(=O)c4cc(NC(=O)[C@@H](N)CCCCN)ccc4OC)ccc3OC)ccc2OC)ccc1OC,antithrombin III-factor Xa,"fondaparinux reversal, amidolytic",,"pH 8.4, with: fondaparinux 0.02 µg/mL",,EC50,11 µM
COc1cc(O)c(C(=O)/C=C/c2ccc(O)cc2)c(OC)c1,"HDAC class I, II and IV (human)","enzyme activity, inhibitor, fluorometric",K562 cell extract,"1 h, 37 °C",,IC50,> 1000 µM
Clc1ccc(NN=C(c2ccccc2)c2ccccn2)nc1,histone deacetylase,,"mouse, tumour-bearing, tumour lysate",dose not given,reference: vehicle,HDAC activity,no effect
COc1cc(/C=C/C(=O)c2ccc(O)cc2O)ccc1O,"HDAC class I, II and IV (human)","enzyme activity, inhibitor, fluorometric",K562 cell extract,"1 h, 37 °C",,IC50,190 µM
COc1ccc(NC(=O)[C@H](CCCCN)NC(=O)c2cc(NC(=O)[C@H](CCCCN)NC(=O)c3cc(NC(=O)[C@H](CCCCN)NC(=O)c4cc(N)ccc4OC)ccc3OC)ccc2OC)cc1C(N)=O,antithrombin III-factor Xa,"fondaparinux reversal, amidolytic",,"pH 8.4, with: fondaparinux 0.02 µg/mL",,EC50,6.8 µM
CC(C)N(CCC1CC2CN(Cc3ccc(S(C)(=O)=O)cc3)CC2C1)C[C@H]1O[C@@H](n2cnc3c(N)ncnc32)[C@H](O)[C@@H]1O (some centres unmarked),human DOT1L R231Q,"inhibitor, western blot, measured: H3K79me2 over histone H3",H460 DOT1L R231Q,concentration not given,reference: cpd over SGC0946,H3K79me2 level ratio,2.03
COc1cc(C(=O)c2[nH]c(N)nc2-c2cccs2)cc(OC)c1OC,tubulin goat,taxol-induced tubulin polymerization,,"150 µM, with: taxol 10 µM",,inhibition,65 ± 18%
O=C([O-])CN1CCN(CC(=O)[O-])CCN(C(CCC(=O)NC(Cc2c[nH]c3ccc(O)cc23)C(=O)NCCc2c[nH]c3ccc(O)cc23)C(=O)O)CCN(CC(=O)[O-])CC1.[Gd+3] (centres unmarked),myeloperoxidase mouse,"MR contrast, MR imaging","wild-type mouse, CFA inflammation","0.3 mmol/kg, 60 min",reference: first post-contrast scan,activation ratio increase,4 fold
COc1ccc(/C=C/C(=O)c2ccccc2)cc1,"HDAC class I, II and IV (human)","enzyme activity, inhibitor, fluorometric",K562 cell extract,"1 h, 37 °C",,IC50,> 1000 µM
CC1=C(/C=C/C(C)=C/C=C/C(C)=C\C=O)C(C)(C)CCC1,"thyroid hormone receptor, rat","reporter gene, agonist, luciferase reporter, qHTS",GH3.TRE-Luc,,,EC50,< 10 µM
CCCCC/C=C/C(=O)CCc1ccc(O)c(OC)c1,mouse mAb 1-F12,"antibody binding, indirect competitive ELISA",,with: coating antigen 6-OVA,,IC50,234 ng/mL
C#CCCNC(=O)[C@@H](NC(=O)N[C@H](C(=O)N[C@H]1/C=C/CCNC(=O)/C=C/[C@H](C(C)C)NC1=O)C(C)C)C(C)C,"proteasome β1 subunit, human and mouse","probe labelling, fluorescent gel",purified constitutive and immunoproteasome,1 h,,minimum labelling concentration,0.5 µM
COc1cc(CCC(C)=O)ccc1O,mAb 5-3H1,"antibody binding, indirect competitive ELISA",,with: coating antigen 4-OVA,,IC50,> 4000 ng/mL
COc1cc2c(NC3CCN(C(C)C)CC3)cc(N3CCOCC3)nc2cc1OCCCN1CCCC1,panel of methyltransferases,enzyme activity,,1 µM,,inhibition,< 20%
COc1ccc(CCC(=O)c2c(O)cc(OC)cc2O)cc1,"HDAC class I, II and IV (human)","enzyme activity, inhibitor, fluorometric",K562 cell extract,"1 h, 37 °C",,IC50,> 1000 µM
COc1ccc(NC(=O)[C@@H](CCCCN)NC(=O)c2cc(NC(=O)[C@@H](CCCCN)NC(=O)c3cc(NC(=O)[C@@H](CCCCN)NC(=O)c4cc(NC(=O)[C@H](N)CCCCN)ccc4OC)ccc3OC)ccc2OC)cc1C(N)=O,antithrombin III-factor Xa,"fondaparinux reversal, amidolytic",,"pH 8.4, with: fondaparinux 0.02 µg/mL",,EC50,3 µM
N=C(N)c1ccc2nc(-c3ccc(-c4nc5ccc(C(=N)N)cc5[nH]4)[se]3)[nH]c2c1,PU.1,"reporter gene, inhibitor, measured: EGFP",PU.1-expressing HEK293 cells,,,IC50,~3 µM
Cc1ccc(NS(=O)(=O)c2cccc(C#N)c2)c2[nH]cc(C#N)c12,human DCAF15-DDB1,TR-FRET,,with: RBM39 RRM2,,affinity increase by DDA1,~3 fold
COc1ccc(C(=O)/C=C/c2ccccc2)cc1,"HDAC class I, II and IV (human)","enzyme activity, inhibitor, fluorometric",K562 cell extract,"1 h, 37 °C",,IC50,> 1000 µM
CC(C)C[C@H](NC(=O)[C@H](CCC(N)=O)NC(=O)[C@H](CCCNC(=N)N)NC(=O)[C@H](CCCNC(=N)N)NC(=O)[C@@H](NC(=O)[C@H](CCCNC(=N)N)NC(=O)[C@@H](NC(=O)[C@H](CO)NC(=O)[C@@H](N)CS)[C@@H](C)O)C(C)C)C(N)=O,human Nox1/p47phox/p67phox,"inhibitor, cytochrome c reduction",,10 µM,,superoxide production,no inhibition
CCCC[C@H](NC(C)=O)C(=O)N[C@@H](CO)C(=O)N[C@H](C(=O)N1CCC[C@H]1C(=O)N[C@]1(C)CCCCCCC=CCCC[C@@](C)(C(=O)N[C@@H](Cc2ccccc2)C(=O)N[C@@H](CCCCN)C(=O)N[C@@H](CCCNC(=N)N)C(=O)N[C@@H](CC(C)C)C(=O)N[C@@H](CCC(N)=O)C(N)=O)NC(=O)[C@H](CCCNC(=N)N)NC(=O)[C@H](CCCC)NC(=O)[C@H](CC(C)C)NC(=O)[C@H](CCCNC(=N)N)NC(=O)[C@H](CCCNC(=N)N)NC(=O)[C@H](CCCNC(=N)N)NC1=O)[C@@H](C)O,UBE1,"p53 ubiquitination, inhibitor",,"30 µM, 2 h, 37 °C, with: UBE2A, HDM2, ubiquitin, ATP",,inhibition,inhibited
CCCCCCCCCCCCCCCC(=O)N[C@@H](CCCCN)C(=O)N[C@@H](CCCCN)C(=O)N[C@@H](CO)C(=O)N[C@@H](CCCNC(=N)N)C(=O)N[C@@H](C)C(=O)N[C@@H](CC(C)C)C(=O)N[C@@H](Cc1ccccc1)C(N)=O,baboon PAR1,ex vivo platelet aggregation,baboon,"intravenous infusion, 6 mg/kg, 1 to 2 h, infusion 45 min, with: SFLLRN",,inhibition,100%
